Measured values collected from several papers.
Compare with care: the assays were run in different laboratories. ± marks the error that the study gave.
TGM2: TGM2 2-687 (Homo sapiens, UniProt P21980)
Chain of UniProt P21980 (whole entry, looked up): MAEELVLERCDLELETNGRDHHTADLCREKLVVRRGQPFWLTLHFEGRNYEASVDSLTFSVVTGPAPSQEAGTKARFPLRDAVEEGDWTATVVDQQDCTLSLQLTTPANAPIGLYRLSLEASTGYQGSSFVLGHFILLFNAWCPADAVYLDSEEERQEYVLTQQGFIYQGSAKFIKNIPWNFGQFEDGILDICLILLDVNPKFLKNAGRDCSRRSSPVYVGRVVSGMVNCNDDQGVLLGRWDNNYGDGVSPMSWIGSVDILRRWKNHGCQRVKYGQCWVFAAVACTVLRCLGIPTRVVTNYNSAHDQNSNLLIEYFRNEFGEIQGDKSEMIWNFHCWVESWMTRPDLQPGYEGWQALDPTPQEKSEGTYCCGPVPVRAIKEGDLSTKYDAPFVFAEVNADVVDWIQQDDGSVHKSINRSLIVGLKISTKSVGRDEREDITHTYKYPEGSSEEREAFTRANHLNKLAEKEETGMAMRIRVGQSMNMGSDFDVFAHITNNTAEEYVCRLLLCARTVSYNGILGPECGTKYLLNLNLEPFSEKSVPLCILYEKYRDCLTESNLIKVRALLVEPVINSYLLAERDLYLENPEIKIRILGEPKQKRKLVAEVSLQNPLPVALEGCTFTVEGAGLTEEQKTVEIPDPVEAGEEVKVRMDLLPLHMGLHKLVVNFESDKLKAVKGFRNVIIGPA
B1: human RNA helicase DHX8; sequence looked up; chain MAVAVAMAGALIGSEPGPAEELAKLEYLSLVSKVCTELDNHLGINDKDLAEFVISLAEKNTTFDTFKASLVKNGAEFTDSLISNLLRLIQTMRPPAKPSTSKDPVVKPKTEKEKLKELFPVLCQPDNPSVRTMLDEDDVKVAVDVLKELEALMPSAAGQEKQRDAEHRDRTKKKKRSRSRDRNRDRDRDRERNRDRDHKRRHRSRSRSRSRTRERNKVKSRYRSRSRSQSPPKDRKDRDKYGERNLDRWRDKHVDRPPPEEPTIGDIYNGKVTSIMQFGCFVQLEGLRKRWEGLVHISELRREGRVANVADVVSKGQRVKVKVLSFTGTKTSLSMKDVDQETGEDLNPNRRRNLVGETNEETSMRNPDRPTHLSLVSAPEVEDDSLERKRLTRISDPEKWEIKQMIAANVLSKEEFPDFDEETGILPKVDDEEDEDLEIELVEEEPPFLRGHTKQSMDMSPIKIVKNPDGSLSQAAMMQSALAKERRELKQAQREAEMDSIPMGLNKHWVDPLPDAEGRQIAANMRGIGMMPNDIPEWKKHAFGGNKASYGKKTQMSILEQRESLPIYKLKEQLVQAVHDNQILIVIGETGSGKTTQITQYLAEAGYTSRGKIGCTQPRRVAAMSVAKRVSEEFGCCLGQEVGYTIRFEDCTSPETVIKYMTDGMLLRECLIDPDLTQYAIIMLDEAHERTIHTDVLFGLLKKTVQKRQDMKLIVTSATLDAVKFSQYFYEAPIFTIPGRTYPVEILYTKEPETDYLDASLITVMQIHLTEPPGDILVFLTGQEEIDTACEILYERMKSLGPDVPELIILPVYSALPSEMQTRIFDPAPPGSRKVVIATNIAETSLTIDGIYYVVDPGFVKQKVYNSKTGIDQLVVTPISQAQAKQRAGRAGRTGPGKCYRLYTERAYRDEMLTTNVPEIQRTNLASTVLSLKAMGINDLLSFDFMDAPPMETLITAMEQLYTLGALDDEGLLTRLGRRMAEFPLEPMLCKMLIMSVHLGCSEEMLTIVSMLSVQNVFYRPKDKQALADQKKAKFHQTEGDHLTLLAVYNSWKNNKFSNPWCYENFIQARSLRRAQDIRKQMLGIMDRHKLDVVSCGKSTVRVQKAICSGFFRNAAKKDPQEGYRTLIDQQVVYIHPSSALFNRQPEWVVYHELVLTTKEYMREVTTIDPRWLVEFAPAFFKVSDPTKLSKQKKQQRLEPLYNRYEEPNAWRISRAFRRR
Chain of UniProt P13393 (whole entry, looked up): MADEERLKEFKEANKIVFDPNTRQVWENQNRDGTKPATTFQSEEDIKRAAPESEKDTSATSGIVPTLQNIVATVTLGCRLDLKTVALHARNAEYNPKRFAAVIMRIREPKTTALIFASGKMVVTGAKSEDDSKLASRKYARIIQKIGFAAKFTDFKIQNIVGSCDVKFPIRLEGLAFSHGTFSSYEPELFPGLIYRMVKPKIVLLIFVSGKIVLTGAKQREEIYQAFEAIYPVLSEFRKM
Chain of UniProt P26368 (whole entry, looked up): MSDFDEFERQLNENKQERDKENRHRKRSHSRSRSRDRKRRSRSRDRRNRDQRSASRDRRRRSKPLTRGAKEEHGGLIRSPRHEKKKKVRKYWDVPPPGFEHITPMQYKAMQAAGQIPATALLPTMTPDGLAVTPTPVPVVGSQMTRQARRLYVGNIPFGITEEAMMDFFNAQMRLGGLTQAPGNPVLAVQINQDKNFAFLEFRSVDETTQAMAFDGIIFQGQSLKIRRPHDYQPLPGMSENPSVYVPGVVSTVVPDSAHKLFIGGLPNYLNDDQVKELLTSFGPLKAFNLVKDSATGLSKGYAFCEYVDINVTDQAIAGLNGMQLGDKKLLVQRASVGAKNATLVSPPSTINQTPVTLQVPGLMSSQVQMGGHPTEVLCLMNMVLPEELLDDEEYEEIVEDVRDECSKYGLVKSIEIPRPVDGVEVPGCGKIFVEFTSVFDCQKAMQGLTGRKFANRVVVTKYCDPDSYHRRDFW

For `GGGAGCAGGAGAGAGGUCAGAUGACACACGAGAGAUGUUGCCUGCUACCCGCACCUAUGCGUGCUAGUGUGA (ssRNA; 2'-fluoro pyrimidines)`, the relative binding was 0.7 RU (TGM2; SPR; RNA; with: MgCl2 5 mM; higher = more binding).
The Kd of `CTCAGGAATTCCTATAAAGTAATGTGGAGCTCAGTTCAAGTCAATCGGTCC (dsDNA; 5'-amino-C6 primer)` is reported as 0.00169 ± 6e-05 µM (SPT15 full length assumed (Saccharomyces cerevisiae, UniProt P13393); array; double-stranded DNA, one strand shown; TBP alone).
For `AUAUUAUUU (ssRNA)`, the Kd was 3.3 µM (U2AF2 148-342 (Homo sapiens, UniProt P26368); sequencing of bound RNA; RNA; motif only).
For `B1 (human RNA helicase DHX8)`, “log2 fold change” read 0.72 (CYB5R4 knockout human cells; PP4 interaction, 3xFLAG-PP4C IP-MS; concentration not given; reference: CYB5R4 KO over parental).
With `GGGAGCAGGAGAGAGGUCAGAUGAUACGAGAGAUGUAACCCGUCCUGCAAUCACCUAUGCGUGCUAGUGUGA (ssRNA; 2'-fluoro pyrimidines)` the relative binding was 46.2 RU (TGM2; SPR; RNA; with: MgCl2 5 mM; higher = more binding).

Excerpt of the above:
With `GGGAGCAGGAGAGAGGUCAGAUGAUACGAGAGAUGUAACCCGUCCUGCAAUCACCUAUGCGUGCUAGUGUGA (ssRNA; 2'-fluoro pyrimidines)` the relative binding was 46.2 RU (TGM2; SPR; RNA; with: MgCl2 5 mM; higher = more binding).
